Experimental data of several laboratories.
A part holds a random share of what one study measured.
UniProt P48729, sequence (whole entry, looked up): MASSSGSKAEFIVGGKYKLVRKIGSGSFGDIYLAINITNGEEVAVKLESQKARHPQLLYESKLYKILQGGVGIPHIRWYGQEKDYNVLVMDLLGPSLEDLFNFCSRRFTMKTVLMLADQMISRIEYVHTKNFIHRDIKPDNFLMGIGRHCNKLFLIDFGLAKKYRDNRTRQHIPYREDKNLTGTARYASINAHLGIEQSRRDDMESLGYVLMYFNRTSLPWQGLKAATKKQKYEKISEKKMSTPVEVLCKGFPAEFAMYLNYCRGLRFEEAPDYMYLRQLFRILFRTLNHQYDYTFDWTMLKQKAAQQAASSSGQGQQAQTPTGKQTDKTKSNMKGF
UniProt Q9UQM7, sequence (whole entry, looked up): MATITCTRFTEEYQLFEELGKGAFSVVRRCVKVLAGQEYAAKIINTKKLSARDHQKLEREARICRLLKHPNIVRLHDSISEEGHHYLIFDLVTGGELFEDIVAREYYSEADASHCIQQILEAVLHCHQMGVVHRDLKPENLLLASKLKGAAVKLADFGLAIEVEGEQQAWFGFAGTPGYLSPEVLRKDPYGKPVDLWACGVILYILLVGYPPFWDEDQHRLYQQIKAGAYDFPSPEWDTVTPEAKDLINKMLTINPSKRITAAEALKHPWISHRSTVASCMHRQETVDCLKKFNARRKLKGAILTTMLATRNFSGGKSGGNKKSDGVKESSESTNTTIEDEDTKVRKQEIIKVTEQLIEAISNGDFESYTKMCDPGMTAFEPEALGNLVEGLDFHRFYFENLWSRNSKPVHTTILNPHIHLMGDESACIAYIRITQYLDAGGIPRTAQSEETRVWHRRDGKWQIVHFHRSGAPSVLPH
UniProt Q06187, sequence (whole entry, looked up): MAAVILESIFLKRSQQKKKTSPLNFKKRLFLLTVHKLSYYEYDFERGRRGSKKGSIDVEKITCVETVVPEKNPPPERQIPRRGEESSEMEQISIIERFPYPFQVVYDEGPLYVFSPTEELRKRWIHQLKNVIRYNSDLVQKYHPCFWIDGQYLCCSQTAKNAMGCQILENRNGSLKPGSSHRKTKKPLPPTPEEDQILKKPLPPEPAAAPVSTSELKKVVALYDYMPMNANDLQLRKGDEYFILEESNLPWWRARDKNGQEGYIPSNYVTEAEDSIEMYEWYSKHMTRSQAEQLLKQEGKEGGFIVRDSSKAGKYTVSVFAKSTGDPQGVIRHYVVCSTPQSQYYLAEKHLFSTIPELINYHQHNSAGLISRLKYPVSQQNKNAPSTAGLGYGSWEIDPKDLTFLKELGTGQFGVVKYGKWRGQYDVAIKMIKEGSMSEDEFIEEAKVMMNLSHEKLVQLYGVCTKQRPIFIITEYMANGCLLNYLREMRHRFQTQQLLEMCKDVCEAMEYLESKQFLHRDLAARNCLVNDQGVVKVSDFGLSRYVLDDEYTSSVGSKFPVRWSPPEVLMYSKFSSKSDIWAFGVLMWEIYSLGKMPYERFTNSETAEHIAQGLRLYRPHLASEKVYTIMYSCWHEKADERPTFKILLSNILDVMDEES
UniProt P50750, sequence (whole entry, looked up): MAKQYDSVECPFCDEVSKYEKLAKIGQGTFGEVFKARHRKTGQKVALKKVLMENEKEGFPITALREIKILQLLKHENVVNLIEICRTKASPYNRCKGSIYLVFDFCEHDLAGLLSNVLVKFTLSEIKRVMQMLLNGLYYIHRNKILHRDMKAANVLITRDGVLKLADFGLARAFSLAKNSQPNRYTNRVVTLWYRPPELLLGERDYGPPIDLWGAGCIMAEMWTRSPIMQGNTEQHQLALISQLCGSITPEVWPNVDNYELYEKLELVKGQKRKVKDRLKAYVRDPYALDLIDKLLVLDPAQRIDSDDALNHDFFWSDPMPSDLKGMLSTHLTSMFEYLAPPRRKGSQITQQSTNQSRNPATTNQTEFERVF

Block 1 — effect on: enzyme activity; mode: inhibitor; concentration: 0.5 µM; baseline: control
SMILES: O=C1NC(=O)c2c1c1c3ccccc3n3c1c1c2c2ccccc2n1[C@H]1CC[C@@H]3O1
target | remaining activity
Cyclin-dependent kinase 9, with cyclin T1 (CDK9, Homo sapiens, UniProt P50750) | 8.52%
CSNK1A1 (Homo sapiens, UniProt P48729) | 104%
BTK (Homo sapiens, UniProt Q06187) | 43.3%

Block 2 — organism: Plasmodium berghei; cells: Huh-7; strain: liver stage; concentration: 10 µM; time: 24 h; baseline: control
Compound | parasite load [%]
Cc1cc(C(C)(C)C)cc(C)c1CC1=NCCN1 | 113
CCN1C[C@]2(COC)[C@H](O)C[C@H](OC)[C@@]34[C@@H]5C[C@@]6(O)[C@H](OC(=O)c7ccccc7)[C@@H]5[C@@](OC(C)=O)([C@@H]([C@H](OC)[C@H]23)[C@@H]14)[C@@H](O)[C@@H]6OC | 99.8
Oc1ccc2c3c1O[C@H]1[C@@H](O)CC[C@@]4(O)[C@@H](C2)N(CC2CCC2)CC[C@]314 | 112
CC[N+](C)(C)c1cccc(O)c1 | 113

Mixed results
Compound | tested on | test | test system | conditions | quantity | value
CC(C)n1cnc(-c2ccc(F)cc2)c1-c1ncc(C(=O)Nc2ccc(N3CCN(C)CC3)cc2)[nH]1 | – | – | human, idiopathic pulmonary fibrosis | 60 mg once daily, trial, treatment-emergent | patients with influenza-like illness | 0%
CC1(C)COC(=O)C1O (racemic) | CAMK2A (Homo sapiens, UniProt Q9UQM7) | enzyme activity, inhibitor | – | 10 µM | inhibition | -12%
